# Measured values gathered from unrelated publications.
# Each numbered part is a random draw from the data of one study; scales do not carry over between parts. Substitutions count along the parent as printed.

# Set 1 — technique: protein binding microarray; molecule type: double-stranded DNA, one strand shown; medium: in vitro; tested at: not given; baseline: not given; reading: higher = stronger binding
# Target: Histone acetyltransferase KAT6A, winged helix 2, GST fusion (KAT6A, Homo sapiens, UniProt Q92794, residues 85-181)
# Setting: 8-mer, flanks averaged, mean of 2 arrays, mostly near background
# Target sequence (chain): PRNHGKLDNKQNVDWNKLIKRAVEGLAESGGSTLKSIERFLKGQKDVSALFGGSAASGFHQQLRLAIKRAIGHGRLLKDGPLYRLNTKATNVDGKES
Sequence,E-score
AAGAGAAT,0.123
ACCCGGCA,0.102
CCTGCGAG,0.154
TAGCGCGA,-0.0244
ATTGGTTG,0.0019
CGTGAACG,-0.0485
CGTCGTGC,0.0821
GGCGCATA,-0.0716
CCAAGGAA,-0.153
GGGGCTTA,-0.0572
GTACTGAA,-0.015
ACGCATCG,-0.0204
AGGTATAA,-0.054
ACCTATTA,-0.166
GGTGCCGA,0.0247
CAAATCGC,-0.0255
ACGTTACC,-0.166
GATTCAGC,0.173
ACCTTGAG,0.0265
CCAGGGCC,-0.0458
GAGTTTTA,0.108
GTATAATA,0.227
ATCCACGG,0.0942
CCCGTCTC,0.0317
TCTTACAA,-0.0401

# Set 2 — target: CCND3, cyclin fold, Cln2 fusion (human); technique: yeast growth competition, sequencing; medium: yeast; setting: weak parent motif; baseline: not given; reading: higher = stronger binding
# Starting sequence: RB1 docking peptide (human); PKPLKKLRFDIEG; partner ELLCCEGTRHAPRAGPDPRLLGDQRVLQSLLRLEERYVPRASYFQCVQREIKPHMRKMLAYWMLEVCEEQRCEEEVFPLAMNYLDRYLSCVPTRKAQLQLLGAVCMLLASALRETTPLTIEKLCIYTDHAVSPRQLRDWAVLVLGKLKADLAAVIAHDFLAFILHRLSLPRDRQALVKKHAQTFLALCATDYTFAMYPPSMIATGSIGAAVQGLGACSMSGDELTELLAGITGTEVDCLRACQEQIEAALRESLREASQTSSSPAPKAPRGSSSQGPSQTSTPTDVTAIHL
Variant,normalised enrichment score
E12W,0.111
L7T,0.108
P3M,0.136
E12K,-0.0276
G13K,0.24
K2G,-0.000259
F9P,0.0419
R8A,0.0797
E12F,0.097
P1S,0.0594
K2N,0.164
L7D,0.0143
F9Q,0.2
G13L,0.134
R8W,0.135
L7Q,0.0415
I11P,0.116

# Set 3 — technique: RNA Bind-n-Seq; molecule type: RNA; medium: in vitro; tested at: not given; baseline: input RNA pool; reading: higher = stronger binding
# Target: RING finger protein unkempt homolog, zinc fingers 1-6, GST-SBP tag (UNK, Homo sapiens, UniProt Q9C0B0, residues 30-357)
# Chain of UniProt Q9C0B0 (30-357, looked up): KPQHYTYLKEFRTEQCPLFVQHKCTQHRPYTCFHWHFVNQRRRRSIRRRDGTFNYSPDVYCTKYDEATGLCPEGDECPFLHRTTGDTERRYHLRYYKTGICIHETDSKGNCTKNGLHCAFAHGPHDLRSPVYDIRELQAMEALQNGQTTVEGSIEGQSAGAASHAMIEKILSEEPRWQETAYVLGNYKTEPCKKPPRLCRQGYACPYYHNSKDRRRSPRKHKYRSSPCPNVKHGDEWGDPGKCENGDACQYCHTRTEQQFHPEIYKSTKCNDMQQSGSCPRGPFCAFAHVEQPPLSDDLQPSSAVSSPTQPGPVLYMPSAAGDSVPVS
# Setting: RNA with constant flanks, human and mouse sites, ends assumed
# Shared flanks, not repeated: GGGAGUUCUACAGUCCGACGAUC … CAACAGAGGAUUGAGCAUCA
Sequence,bound/input enrichment
CAGACGGAGAAAGAGGAAAAAGAAGAAGCAAGAUCAAAAUACAAAGAAGCUAAGGAAUCUUUUCAGCGUUUUCUUGAAAAUCAUGAGAAAAUGACUUCCACAACCAGAUACAAAAAAGCU,0.357 ratio
AAAUCCUCAUUGACGAUUCAAUUUGUUGAAGGCCAAUUUGUGGACUCCUACGAUCCAACCAUAGAAAACACUUUUACAAAGUUGAUCACAGUAAAUGGACAAGAAUAUCAUCUUCAACUU,0.342 ratio
UUUAAUGUAUAAAGAUUUUCUAGGAAAUGAUAUUGUGUAUUAAGACAUUCCUUAAUUAAAUUAGGACAAAAUGGCUGCUGUAUAUUUACAAUAUGGAAUUCUGAGUUAAGUACCGCCCUU,0.411 ratio
GAAACUGAAGAUGUAAAAGAAGCCAUAAGAAGGCUUCCUGAGGACCUUUAUAAUGACAGGAUGUUUCGAAUUAAGAGAGCCCUGGACCUGACUAUGAGGCAUCAGAUCUUGCCUAAGGAU,0.177 ratio
GGUUACAGGAAGUCCCUCACCCUCCCAAAAGCCACCCCCACUCCUAAGAGGAGGAUGGUCGCGUCCAUGCCCUGAGUCCACCCCGGGGAAGGUGACAGCAUUGCUUCUGUGUAAAUUAUG,0.214 ratio
UUUCAUCUUGAGGUGGCCAAUAUGGGAUGUGGAAUUUUUACAUGAGUUACACAUGUUUGGCAUAGUACUUUUGGUACAUUGUGGCUUCAGAAGGGCCAGUGUUAAAACUGCUUCCAUGUC,0.11 ratio
UACCUGAUGCAAGGCCCAUGUCUUCCCUACACCAGUAAACUUGUGAAAACCUUAUUGUAUAACUUUAUCAGACAAGAAAAGCCACCUCCGCCCGGAACCCAUGUCUUCCCUCAGCAGUCG,0.252 ratio
UAUGCAGGUGCCUUGAGAGCUUCAGGGGAAAUGGCUUCAGCGCAGUAUAUUACUGCAGCCCUUAGAGAUUUGUUUGAUUCCAUGGAUAAAACUUCUUCCAGUAUUCCACCUAUUAUUCUA,0.739 ratio
GAACAAUCCUUGGAAACUGCUAAGGCAGUAAAGGAGCGCUAUAGUUAUGUCUGCCCAGAUUUAGUAAAAGAAUUUAACAAGUAUGAUACAGAUGGGUCAAAAUGGAUUAAACAGUAUACU,4.63 ratio
AUGGAGUUAAGGGAAAGCCUGAAAGUACCUUAAUAAUGUUAUUAAUCAAGACAGAUUCCUUUUUAAAGGAAUUCUGAAUAGUUCCAUGUCAUACAAUAUUCUAGAAAUUAAAACAUCAUC,5.25 ratio
AAUACCCAAACUCCCAUCUAUGGGACUGAGCACAAUAGUGAAAACACAGACUUUGGUGACUCUGGAAGGCUUUACUAUUGUAAACACUGUGACUUUAACAACAAAUCUGCCCGGAGUGUU,0.387 ratio

# Set 4 — technique: RNA Bind-n-Seq; molecule type: RNA; medium: in vitro; tested at: 365 nM; baseline: no-protein control; reading: higher = stronger binding
# Target: RNA binding protein fox-1 homolog 2, RRM domain, GST-SBP tag (RBFOX2, Homo sapiens, UniProt O43251-10, residues 100-194)
# Setting: natural RNA segment, single round, ends assumed
# Shared flanks, not repeated: GGGAGUUCUACAGUCCGACGAUC … UGGAAUUCUCGGGUGCCAA
# Residues (chain): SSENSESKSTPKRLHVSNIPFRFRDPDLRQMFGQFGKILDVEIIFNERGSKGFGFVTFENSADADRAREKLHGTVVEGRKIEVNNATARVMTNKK
Sequence,RBNS enrichment (R)
AUGAGCCCUGAGGAACACAGGGAGGGCCUUGAAGAACAAUCUACAGAUGCACAAUCCUUUCCAACCUACAACUUCCUCAAAAUCCAGAGCCAGCCAAAGGAUCAAUGAAG,0.651
CCCUGUCUUUCAUUGAGCCUUAGCAUUUCCCUCUCAGGCUUCCUCUCAAGCUCAAGGAACUCACCCCCAGAUAAGAAGCUGGUGCCUCUUGUCUCUCUCAUUUCAGAAAC,0.407
GGCUGUGGGGUAUCCACCUCGCCCAAGUCUCCUUUUACUGAAAUAAAAUUUGAGGGGAAGAGAAAAAACUUACACGAGCACCGAAUUUCAAAUAAACGAAAAUGAGACAU,0.385
GAUUUACACAAAUGUGACAACUUGGGCUCAAUUCACUCUGCUUUCCAACAGUGUAAAUGCAUAGCAGUGUUUAUCUGCAUGAGAACUAUGCACUAAUCUAUCUGAAGAAA,0.757
UAGGAGAAAUAUAAAUACAGUAAGUUUAGAUUAUUGAAUUGGUGCUUGAAAUUUAUUGGUUUUGUUGUAAUUUUAUACAGAUUAUAUGAGGGAUAAGAUACUCAUCAAAU,1.51
AACAGAAGAGAGAAGGAGGCAGGGAGAUGUAUUUCUUAGGGCUCACCCCUUCACAGACUGACAGAAUGGUUUUGUUUUGUUUUGUUUUGUUUUGUUUUGUUUUUGAGAUG,0.526
UCUAAGACACAGAAAUGUAUUUAAUAAAAACCUCGAGAGAGUGAUGGGUGGAACCCCUUCUCCUUGAAAGUGUGUACAGAUAUUCCAUUUUGUUUGGAUAUAGUUUAUAG,0.401
CAGGGAAACAGUUCUUGGUCCCCCUUUUUUGGGGUCAGCAUUUUAAAAAUGCAAAGCCUAUAUGUUGAGACAUUGUAUUCCUAAUUAGAUUCUCUGUCCUUUGCACAUAA,0.493
UUCAUGGUGGGCCCUGUGCUCUGUUAAUGAGUCCCUGGCAUGGAUGGAUGAAUACCUGAGUCACCAGCUGAAGUGUCCCUUAUGAGGAAAGAAGAGGCCAGGGACUAGAA,1.36
AAGGUGCACUACAAAAAGAUGUAUGCAAACAAACAUGUUUUAAAUCAGGUCAGAUAUCUGAUGAAAAAUACGAACUAAUGUUAAGAGCAAGUAGUUUCAACAUACUCCAG,0.321
UAUUCCCUGGUAUCAGUGUAAUGGAAAGUAGCAGCAGAGAGGAAGUUAAUGGCAGGCAGGCCCAUCUGGCUAUCCCGCAGUUGGGGAAACCCUUGCAAAGUAAACAGCUU,0.289
UGGUGUGGUUGGGUCAAGGCCCCAACACCAUGGCUGCCAGCUUCCAGGCUGGACAAAGCAGGGGGCUACUUCUCCCUUCCCUCGGUUCCAGUCUUCCCUUUAAAAGCCUG,0.276

# Set 5 — technique: protein-binding microarray; molecule type: double-stranded DNA, one strand shown; medium: in vitro; tested at: 940 nM top; setting: 60-bp whole probe; together with: salmon DNA 0.4 mg/ml; baseline: random background probes; reading: higher = stronger binding; shared flanks, not repeated: GCCTAGCAC … GTCTTGATTCGCTTGACGCTGCTG
# Target: Interferon regulatory factor 5, full length, phosphomimetic (IRF5, Homo sapiens, UniProt Q13568-2, residues 1-514, S451D/S453D/S456D/S462D)
Sequence,fitted relative affinity [z-score]
GACGGACTGTTTTTCCTGACGTGCTAG,0.079
TTCACTCTCTGCTTGTGTCTGTGCTAG,1.81
GGCAGCCTCTGCATTCCCTCAGTGCTA,-0.11
CCTCATCTTCCTCTGCCACAGTGCTAG,1.32
ACCACTTTTATTTTCAGTATGTGCTAG,1.69
TTAGGTTTCGGGATCGGTTAGTGCTAG,8.74
TCAATTCGTCATTTCACACTGTGCTAG,0.803
GACGGTCTCTTTCTCCTGACGTGCTAG,1.31
TTAGATATCAGGACTGGATTAGTGCTA,-0.401
AGACATGACACCACTCCTGAGTGCTAG,0.135
TCATGTTTCCTTCCTCTACTGTGCTAG,1.52
GACGGTATCCTGATCCTGACGTGCTAG,-0.349
GTGGTTCTGCTTCTTAGCGCGTGCTAG,0.327
GACGGTTTCTGTCTCGGGACGTGCTAG,5.84
ATATCTTATCCTATCAGTTTGTGCTAG,0.102
GGGATGGTGGGGCTCCTCCTGTGCTAG,0.106
TCACCTCTTTCTTTGCTACTGTGCTAG,1.34
GACGGACTGGCACTGGGGACGTGCTAG,-0.656
GACGGACTGGGGTATCTGGACGTGCTA,0.103
GACGGTTGCCTACTGCTGACGTGCTAG,-0.421
TTAGATATCAGTCTCGATTGGTGCTAG,2.97
GACGAAATGAGTCTCGAGACGTGCTAG,1.1
TTAGATTTCGGGTTTCGATTGGTGCTA,5.44
GACGATATCGCGTATCGAGACGTGCTA,0.349
TCAGTTTCTGGTTTATTACTGTGCTAG,5.25
